Measurements pooled from the literature.
Compare with care: the assays were run in different laboratories. ± marks the error that the study gave.

NC(Cc1cc(O)c(O)cc1O)C(=O)O (racemic)
EC50 (Leishmania donovani; intracellular amastigote): > 100000 nM

CCCCCCCCCCCCCN(C)C
intrinsic clearance in vivo (Oncorhynchus mykiss; liver S9 substrate depletion; rainbow trout liver S9; tested individually): 189 mL/h/g liver

c1ccc(COCc2nc3ccccc3[nH]2)cc1
LC50 (Artemia salina; 24 h): 16.7 µg/mL

C/C(=N\C#N)N(C)Cc1ccc(Cl)nc1
EC10 (Folsomia candida; reproduction, OECD 232; LUFA 2.2 soil; 28 days): 0.05 mg/kg dry soil

CCOc1ccc2c(c1)C(C)=CC(C)(C)N2
LC50 (Oncorhynchus mykiss; well water; 96 h): 18 µg/mL

CCCCCCCCCCCCN(C)C
intrinsic clearance in vivo (Oncorhynchus mykiss; liver S9 substrate depletion; pooled rainbow trout liver S9; pH 7.8, tested individually): 288 mL/h/g liver

CC(C)(c1ccc(O)cc1)c1ccc(O)cc1
LC50 (Daphnia magna; neonates under 24 h; 48 h): 66500 nM

CN[C@@](C)(C[18F])C(=O)O
tracer uptake (mouse, bone; 2 h, tumour-bearing): 2.3 %ID/g

Oc1cc(Cl)ccc1Oc1ccc(Cl)cc1Cl
LC50 (Daphnia magna; neonates under 24 h; 48 h): 995 to 1190 nM

O=C(O)c1cc[c]([Hg][Cl])cc1
EC50 (Trypanosoma brucei; viability, flow cytometry; bloodstream form; 24 h): 2100 ± 200 nM

Clc1ccc(-c2nc3ccccc3[nH]2)cc1
LC50 (Artemia salina; 24 h): 148 µg/mL

CNC(=O)c1cc(Cl)cc(C)c1NC(=O)c1cc(Br)nn1-c1ncccc1Cl
mortality (Apis mellifera; acute contact toxicity; female worker bees; topical, 2 µg/bee, 48 h, with: propiconazole 10 µg/bee 1 h before): 100%

CCCC(CCC)C(=O)Nc1ccccc1O
lowest effective concentration (Artemia franciscana; body length; larvae; 24 and 48 h, 0.17% DMSO): 0.56 mM

CCCCCCCCCN(C)C
intrinsic clearance in vitro (Oncorhynchus mykiss; liver S9 substrate depletion; rainbow trout liver S9; tested individually): 2.14 mL/h/mg S9 protein

CCOP(=S)(OCC)Oc1nc(Cl)c(Cl)cc1Cl
LC50 (Daphnia magna; neonates under 24 h; 48 h): 2.92 nM

COc1ccc(Cn2c(-c3ccc(OC)cc3)nc3ccccc32)cc1
LC50 (Artemia salina; 24 h): 36 µg/mL
